Results pooled from the literature.
Lines come from different studies, so protocols differ.
GBA2: Beta-glucosidase (GBA2, Homo sapiens, UniProt Q9HCG7)
Chain of UniProt Q9HCG7 (whole entry, looked up): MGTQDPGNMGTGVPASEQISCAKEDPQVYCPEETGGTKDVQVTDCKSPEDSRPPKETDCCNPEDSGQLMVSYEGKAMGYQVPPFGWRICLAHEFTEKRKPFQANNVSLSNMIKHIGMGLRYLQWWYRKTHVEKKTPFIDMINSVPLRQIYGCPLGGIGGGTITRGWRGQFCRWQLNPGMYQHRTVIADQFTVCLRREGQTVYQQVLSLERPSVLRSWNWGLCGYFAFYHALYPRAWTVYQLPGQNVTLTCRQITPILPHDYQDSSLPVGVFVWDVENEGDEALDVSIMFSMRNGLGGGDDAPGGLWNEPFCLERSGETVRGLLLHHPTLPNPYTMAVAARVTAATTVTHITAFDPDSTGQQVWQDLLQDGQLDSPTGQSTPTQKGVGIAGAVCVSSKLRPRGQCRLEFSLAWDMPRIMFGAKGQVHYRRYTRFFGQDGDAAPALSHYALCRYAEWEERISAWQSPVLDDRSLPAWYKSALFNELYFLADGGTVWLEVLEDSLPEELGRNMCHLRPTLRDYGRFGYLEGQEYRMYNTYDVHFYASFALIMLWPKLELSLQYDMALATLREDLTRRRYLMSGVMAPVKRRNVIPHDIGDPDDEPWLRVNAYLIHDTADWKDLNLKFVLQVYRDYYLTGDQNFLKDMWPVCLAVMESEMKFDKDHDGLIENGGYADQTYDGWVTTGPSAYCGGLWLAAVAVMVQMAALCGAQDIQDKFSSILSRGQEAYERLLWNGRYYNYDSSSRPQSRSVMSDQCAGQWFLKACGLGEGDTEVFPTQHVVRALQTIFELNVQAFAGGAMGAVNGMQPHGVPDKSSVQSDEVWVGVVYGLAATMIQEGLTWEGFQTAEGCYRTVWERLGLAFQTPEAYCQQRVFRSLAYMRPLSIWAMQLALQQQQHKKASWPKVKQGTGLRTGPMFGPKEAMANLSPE
Chymotrypsinogen A: Chymotrypsinogen A (Bos taurus, UniProt P00766)
PPARA ligand-binding domain: Peroxisome proliferator-activated receptor alpha, ligand-binding domain (PPARA, Homo sapiens, UniProt Q07869)
Chain of UniProt Q07869 (whole entry, looked up): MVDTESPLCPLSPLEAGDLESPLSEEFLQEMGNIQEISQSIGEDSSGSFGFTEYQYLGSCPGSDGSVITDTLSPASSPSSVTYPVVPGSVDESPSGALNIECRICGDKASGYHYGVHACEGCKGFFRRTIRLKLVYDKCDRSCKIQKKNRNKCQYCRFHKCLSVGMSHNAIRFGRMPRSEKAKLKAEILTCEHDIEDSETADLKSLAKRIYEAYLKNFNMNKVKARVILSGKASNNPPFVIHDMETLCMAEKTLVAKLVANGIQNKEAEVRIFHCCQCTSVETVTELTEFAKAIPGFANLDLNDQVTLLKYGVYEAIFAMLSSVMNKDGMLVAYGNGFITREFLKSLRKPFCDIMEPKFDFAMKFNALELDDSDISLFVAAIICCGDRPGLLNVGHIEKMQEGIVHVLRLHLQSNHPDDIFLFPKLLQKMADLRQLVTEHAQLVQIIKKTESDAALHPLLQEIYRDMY
PIK3CG: Phosphatidylinositol 4,5-bisphosphate 3-kinase catalytic subunit gamma isoform (PIK3CG, Homo sapiens, UniProt P48736)
Chain of UniProt P48736 (whole entry, looked up): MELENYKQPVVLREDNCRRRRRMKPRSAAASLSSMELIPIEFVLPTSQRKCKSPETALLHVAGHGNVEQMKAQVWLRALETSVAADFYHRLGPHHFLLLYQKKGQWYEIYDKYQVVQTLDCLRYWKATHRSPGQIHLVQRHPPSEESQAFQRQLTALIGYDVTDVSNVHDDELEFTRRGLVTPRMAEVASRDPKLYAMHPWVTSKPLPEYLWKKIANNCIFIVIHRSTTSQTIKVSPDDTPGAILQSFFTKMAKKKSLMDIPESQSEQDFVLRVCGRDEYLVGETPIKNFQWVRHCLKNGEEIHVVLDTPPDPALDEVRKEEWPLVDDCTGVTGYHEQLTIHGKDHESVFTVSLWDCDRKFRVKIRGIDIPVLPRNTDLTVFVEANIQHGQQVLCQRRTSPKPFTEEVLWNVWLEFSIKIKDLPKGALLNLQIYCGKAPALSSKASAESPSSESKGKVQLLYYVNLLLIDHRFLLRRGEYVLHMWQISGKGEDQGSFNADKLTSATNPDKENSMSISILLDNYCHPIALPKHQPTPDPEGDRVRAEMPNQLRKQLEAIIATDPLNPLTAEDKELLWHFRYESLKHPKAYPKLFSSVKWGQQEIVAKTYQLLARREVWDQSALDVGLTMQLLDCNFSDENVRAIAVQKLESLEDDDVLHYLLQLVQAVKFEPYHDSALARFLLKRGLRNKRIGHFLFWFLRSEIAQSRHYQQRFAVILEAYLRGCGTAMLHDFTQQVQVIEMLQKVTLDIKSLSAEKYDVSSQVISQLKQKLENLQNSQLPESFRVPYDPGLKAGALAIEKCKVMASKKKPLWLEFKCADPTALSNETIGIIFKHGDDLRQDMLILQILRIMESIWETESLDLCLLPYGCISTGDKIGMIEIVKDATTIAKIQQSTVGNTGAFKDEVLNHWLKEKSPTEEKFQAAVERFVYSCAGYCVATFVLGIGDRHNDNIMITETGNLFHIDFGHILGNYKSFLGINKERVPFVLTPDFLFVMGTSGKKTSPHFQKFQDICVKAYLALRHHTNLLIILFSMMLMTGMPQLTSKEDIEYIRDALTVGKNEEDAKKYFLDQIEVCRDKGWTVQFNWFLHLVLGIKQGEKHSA
Chain of UniProt Q15109 (whole entry, looked up): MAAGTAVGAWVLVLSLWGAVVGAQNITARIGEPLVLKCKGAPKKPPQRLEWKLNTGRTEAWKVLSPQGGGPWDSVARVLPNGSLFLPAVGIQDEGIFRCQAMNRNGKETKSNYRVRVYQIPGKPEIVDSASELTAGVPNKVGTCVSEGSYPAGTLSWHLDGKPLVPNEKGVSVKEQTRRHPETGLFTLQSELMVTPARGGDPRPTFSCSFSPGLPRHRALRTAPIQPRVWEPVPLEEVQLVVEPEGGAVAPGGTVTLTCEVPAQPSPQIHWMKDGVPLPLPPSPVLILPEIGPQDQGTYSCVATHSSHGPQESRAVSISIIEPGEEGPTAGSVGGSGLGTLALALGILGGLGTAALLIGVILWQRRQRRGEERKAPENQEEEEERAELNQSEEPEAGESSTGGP
Chain of UniProt O14757 (whole entry, looked up): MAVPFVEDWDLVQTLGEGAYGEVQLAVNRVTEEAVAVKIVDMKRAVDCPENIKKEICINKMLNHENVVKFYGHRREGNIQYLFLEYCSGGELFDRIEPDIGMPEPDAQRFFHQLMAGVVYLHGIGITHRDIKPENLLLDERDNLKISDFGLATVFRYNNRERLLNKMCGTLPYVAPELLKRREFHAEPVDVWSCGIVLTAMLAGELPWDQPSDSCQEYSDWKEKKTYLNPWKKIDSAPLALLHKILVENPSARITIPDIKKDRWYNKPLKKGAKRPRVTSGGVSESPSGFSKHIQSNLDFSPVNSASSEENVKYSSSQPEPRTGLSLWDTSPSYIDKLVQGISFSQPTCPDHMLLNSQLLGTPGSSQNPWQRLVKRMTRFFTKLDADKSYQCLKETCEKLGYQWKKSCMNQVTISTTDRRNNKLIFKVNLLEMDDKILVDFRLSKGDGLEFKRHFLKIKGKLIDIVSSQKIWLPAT
Chain of UniProt Q6PL18 (whole entry, looked up): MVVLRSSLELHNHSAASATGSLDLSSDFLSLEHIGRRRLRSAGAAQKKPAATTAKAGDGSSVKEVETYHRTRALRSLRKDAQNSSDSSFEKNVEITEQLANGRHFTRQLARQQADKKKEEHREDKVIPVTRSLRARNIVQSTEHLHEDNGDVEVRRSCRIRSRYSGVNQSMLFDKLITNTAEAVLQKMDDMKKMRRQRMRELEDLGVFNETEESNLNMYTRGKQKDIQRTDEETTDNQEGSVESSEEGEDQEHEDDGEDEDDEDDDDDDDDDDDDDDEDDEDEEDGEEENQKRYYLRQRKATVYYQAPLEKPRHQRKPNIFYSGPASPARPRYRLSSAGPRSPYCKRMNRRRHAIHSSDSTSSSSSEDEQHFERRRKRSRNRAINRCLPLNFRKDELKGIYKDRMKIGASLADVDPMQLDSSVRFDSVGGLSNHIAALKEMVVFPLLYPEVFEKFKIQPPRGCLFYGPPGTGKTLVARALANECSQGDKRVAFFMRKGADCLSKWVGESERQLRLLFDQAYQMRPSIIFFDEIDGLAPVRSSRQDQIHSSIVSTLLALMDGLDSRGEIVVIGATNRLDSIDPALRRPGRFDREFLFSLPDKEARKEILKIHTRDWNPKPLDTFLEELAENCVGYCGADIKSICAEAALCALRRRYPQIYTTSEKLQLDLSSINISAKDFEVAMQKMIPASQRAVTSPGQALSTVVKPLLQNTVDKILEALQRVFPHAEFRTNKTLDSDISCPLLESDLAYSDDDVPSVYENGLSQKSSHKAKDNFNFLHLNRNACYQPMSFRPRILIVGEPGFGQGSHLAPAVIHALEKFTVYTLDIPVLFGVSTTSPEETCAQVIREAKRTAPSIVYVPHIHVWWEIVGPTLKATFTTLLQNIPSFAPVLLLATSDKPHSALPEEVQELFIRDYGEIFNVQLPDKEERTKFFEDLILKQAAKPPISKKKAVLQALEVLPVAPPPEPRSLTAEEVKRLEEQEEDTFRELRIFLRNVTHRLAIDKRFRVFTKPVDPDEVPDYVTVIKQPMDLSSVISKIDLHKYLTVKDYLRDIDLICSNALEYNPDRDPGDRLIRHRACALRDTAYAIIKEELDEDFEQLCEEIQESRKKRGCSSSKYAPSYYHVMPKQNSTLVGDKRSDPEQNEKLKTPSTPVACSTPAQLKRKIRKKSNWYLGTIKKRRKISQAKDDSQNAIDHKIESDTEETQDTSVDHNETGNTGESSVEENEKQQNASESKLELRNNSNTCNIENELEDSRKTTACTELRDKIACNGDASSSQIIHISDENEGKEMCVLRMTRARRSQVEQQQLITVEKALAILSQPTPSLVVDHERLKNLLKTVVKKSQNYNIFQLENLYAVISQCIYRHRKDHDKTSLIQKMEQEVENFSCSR
Chain of UniProt Q99436 (whole entry, looked up): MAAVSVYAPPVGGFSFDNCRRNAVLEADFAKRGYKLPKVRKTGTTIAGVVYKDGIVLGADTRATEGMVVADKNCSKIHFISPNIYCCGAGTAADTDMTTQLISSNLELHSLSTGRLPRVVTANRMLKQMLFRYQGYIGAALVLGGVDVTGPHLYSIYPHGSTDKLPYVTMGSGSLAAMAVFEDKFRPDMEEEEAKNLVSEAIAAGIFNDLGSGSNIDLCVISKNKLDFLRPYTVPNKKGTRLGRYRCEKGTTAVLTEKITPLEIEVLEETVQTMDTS

SMILES | target | assay | test system | setting | IC50
CN1CCC[C@@H]1C(=O)N[C@@H](Cc1ccc(-c2ccccc2)cc1)B(O)O | Proteasome subunit beta type-3/PSMB7 (Homo sapiens, UniProt P49720+Q99436) | β2c trypsin-like activity, inhibitor |  | constitutive proteasome, with: Ac-KQL-AMC | > 10 µM
OC[C@@H]1[C@@H](O)[C@H](O)[C@@H](O)CN1CCCCCCC12CC3CC(CC(C3)C1)C2 | GBA2 | inhibitor, 4MU-β-D-glucopyranoside | HEK293T homogenates overexpressing GBA2 |  | 0.01 µM
Cn1cc(-c2ccc3[nH]c4c(c3c2)-c2nc(N)ncc2CC4)cn1 | PIP4K2C (Homo sapiens, UniProt Q8TBX8) | target engagement in cells, BRET |  |  | 0.17 µM
Cc1nn(-c2cccc(N)c2)c(=O)c2cnc(Nc3ccc(N4CCNCC4)cc3)nc12 | PTK2 (Homo sapiens, UniProt Q05397) | kinase activity, inhibitor, SelectScreen kinase profiling |  |  | > 10 µM
O=C(NCc1ccc(Cl)cc1)C(C(F)(F)F)C(F)(F)F | Chymotrypsinogen A | enzyme activity, inhibitor, fluorescence |  |  | 18 µM
CNC(=O)C[C@H](Cc1ccc(C#N)cc1)NC(=O)c1cc(-c2ccc(CN[C@H](C)c3ccc(C)cc3)o2)ccc1Cl | ATPase family AAA domain-containing protein 2, bromodomain (ATAD2, Homo sapiens, UniProt Q6PL18) | binding, TR-FRET |  | with: peptide, histone H4, tetra-acetylated | 15.5 µM
CC(C)(C)OC(=O)N1CCC(Oc2ccc(Cl)cc2NC(=O)Nc2cnc(C#N)cn2)C1 (stereo not drawn) | CHEK1 (Homo sapiens, UniProt O14757) | enzyme activity, inhibitor |  |  | > 10 µM
Cc1c(Cc2cccc(OC(C)(C)C(=O)O)c2)c2ccc(C(=O)N[C@@H](C)c3cccc(C#N)c3)cc2n1C | PPARA ligand-binding domain | reporter gene, luciferase reporter | HEK293T, Gal4-PPARα LBD |  | 85.9 µM
Cc1ccc(S(=O)(=O)N2CC(NC(=O)Cc3ccccc3)C2=O)cc1 (stereo not drawn) | Chymotrypsinogen A | enzyme activity, inhibitor, fluorescence |  |  | 0.54 µM
C[C@](C(=O)NC1CCOCC1)(c1cncnc1)N(C(=O)[C@H](F)Cl)c1ccc(OC(F)(F)Cl)cc1 | Replicase polyprotein 1ab, main protease (Human coronavirus OC43, UniProt P0C6X6) | inhibitor |  |  | 0.01 µM
OC[C@@H]1[C@@H](O)[C@H](O)[C@@H](O)CN1CCCCCOCc1ccccc1-c1ccccc1 | GBA2 | inhibitor, 4MU-β-D-glucopyranoside | HEK293T homogenates overexpressing GBA2 |  | 0.003 µM
O=C(Nc1ccc(Cl)cc1)Nc1ccc(C2=NNC(c3ccc(NC(=O)Nc4ccc(Cl)cc4)cc3)C2)cc1 (stereo not drawn) | AGER (Homo sapiens, UniProt Q15109) |  |  |  | 22 µM
O=C1Nc2ccccc2C12NC(c1ccc(Cl)c(Cl)c1)C1(C(=O)Nc3ccccc31)N2Cc1ccc(Cl)c(Cl)c1 (stereo not drawn) | PIK3CG | enzyme activity, inhibitor, ADP detection |  |  | 0.0201 µM
CCCCCOCCCCCN1C[C@H](O)[C@@H](O)[C@H](O)[C@@H]1CO | GBA2 | inhibitor, 4MU-β-D-glucopyranoside | HEK293T homogenates overexpressing GBA2 |  | 0.015 µM
Cc1cccc(NC(=O)C(C(F)(F)F)C(F)(F)F)c1 | Chymotrypsinogen A | enzyme activity, inhibitor, fluorescence |  |  | 7.4 µM
COc1ccccc1/C=C1\C(=O)N(C)c2ccc(N(C)c3nc(C)nc4ccccc34)cc21 | PIK3CG | enzyme activity, inhibitor, ADP detection |  |  | 0.157 µM
CCN(CC)CC(=O)Nc1cccc(-n2cc(-c3ccc4ccc(-c5cn(-c6cccc(NC(=O)CN(CC)CC)c6)nn5)cc4c3)nn2)c1 | PRKCQ (Homo sapiens, UniProt Q04759) | enzyme activity, inhibitor |  |  | > 10 µM
Cc1c(Cc2cccc(OC(C)(C)C(=O)O)c2)c2ccc(C(=O)N[C@@H](C)c3ccc(C(C)C)cc3)cc2n1C | PPARA ligand-binding domain | reporter gene, luciferase reporter | HEK293T, Gal4-PPARα LBD |  | 9.49 µM

A few entries again:
SMILES | target | assay | test system | setting | IC50
Cn1cc(-c2ccc3[nH]c4c(c3c2)-c2nc(N)ncc2CC4)cn1 | PIP4K2C (Homo sapiens, UniProt Q8TBX8) | target engagement in cells, BRET |  |  | 0.17 µM
Cc1nn(-c2cccc(N)c2)c(=O)c2cnc(Nc3ccc(N4CCNCC4)cc3)nc12 | PTK2 (Homo sapiens, UniProt Q05397) | kinase activity, inhibitor, SelectScreen kinase profiling |  |  | > 10 µM
